Assay results of several laboratories.
Compare with care: the assays were run in different laboratories.
Cell line: UO-31

CSc1nc(-c2ccc(Cl)cc2)c2c(NC(=O)c3ccccc3)nnc-2[nH]1 — cell growth (SRB; 10 µM, NCI60 single-dose screen; baseline: untreated): 64.7%
O=C1NC(c2ccccc2)(c2ccccc2)C(=O)N1Cc1cn(-c2c3ccccc3nc3ccccc23)nn1 — growth percentage (NCI60 single-dose screen; 10 µM): 62.4%
CCCN1CCN(c2ccc3nc(-c4ccc5nc(-c6cc(OC)ccc6OC)[nH]c5c4)[nH]c3c2)CC1 — growth percent (SRB; 10 µM, 48 h): 85.7%
Cc1cc(=O)[nH]c(=O)n1Cc1cn(-c2cc3ccccc3oc2=O)nn1 — growth percentage (NCI60 single-dose screen; 10 µM): 85.3%
C#C[C@@]1(O)[C@@H](CO)O[C@@H](n2cc(F)c3c(N)ncnc32)[C@@H]1O — TGI (SRB; NCI-60 screen): 2.48 µM
COc1ccc(OC)c(-c2nc3ccc(-c4nc5ccc(N6CCN(C)CC6)cc5[nH]4)cc3[nH]2)c1 — growth percent (SRB; 10 µM, 48 h): 75%
S=C([S][Au-][P+](CCCCCC[P+]([Au-][S]C(=S)n1cccn1)(c1ccccc1)c1ccccc1)(c1ccccc1)c1ccccc1)n1cccn1 — log10 TGI (cell growth, NCI-60 screen; renal cancer): > -4
Cn1cncc1C1=CN(c2ncnc3[nH]cnc23)CCS1 — TGI (renal cancer): 129 µM
O=C(Nc1nnc2n3c(Cc4ccccc4)n[nH]c3nc(-c3ccc(Cl)cc3)c1-2)c1ccccc1 — cell growth (SRB; 10 µM, NCI60 single-dose screen; baseline: untreated): 88.3%
O=c1ccn(Cc2cn(-c3c4ccccc4nc4ccccc34)nn2)c(=O)[nH]1 — growth percentage (NCI60 single-dose screen; 10 µM): 88%
Cc1cc(-c2ccccc2)n(-c2nc(-c3ccc(Cl)cc3)c3c(NC(=O)c4ccccc4)nnc-3[nH]2)n1 — cell growth (SRB; 10 µM, NCI60 single-dose screen; baseline: untreated): 80.2%
CCCCN1CCN(c2ccc3[nH]c(-c4ccc5[nH]c(-c6ccc(OCC)c(OCC)c6)nc5c4)nc3c2)CC1 — growth percent (SRB; 10 µM, 48 h): 74.4%
O=C1NC(=NCc2cccs2)S/C1=C\c1ccc2ncccc2c1 — IC50 (MTS; NCI60 panel): > 10 µM
CCCN1CCN(c2ccc3[nH]c(-c4ccc5[nH]c(-c6ccc(OCC)c(OCC)c6)nc5c4)nc3c2)CC1 — growth percent (SRB; 10 µM, 48 h): 47.2%
Cc1n[nH]c2nc(-c3ccc(Cl)cc3)c3c(NC(=O)c4ccccc4)nnc-3n12 — cell growth (SRB; 10 µM, NCI60 single-dose screen; baseline: untreated): 82.2%
CCCN1CCN(c2ccc3[nH]c(-c4ccc5[nH]c(-c6ccc(C(F)(F)F)cc6)nc5c4)nc3c2)CC1 — growth percent (SRB; 10 µM, 48 h): 79.7%
Cc1cc(C)n(-c2nc(-c3ccc(Cl)cc3)c3c(NC(=O)c4ccccc4)nnc-3[nH]2)n1 — cell growth (SRB; 10 µM, NCI60 single-dose screen; baseline: untreated): 75.5%
CCCCN1CCN(c2ccc3[nH]c(-c4ccc5[nH]c(-c6ccc(OCC)cc6)nc5c4)nc3c2)CC1 — growth percent (SRB; 10 µM, 48 h): 100%
O=C(Nc1nnc2n3c(=S)[nH][nH]c3nc(-c3ccc(Cl)cc3)c1-2)c1ccccc1 — cell growth (SRB; 10 µM, NCI60 single-dose screen; baseline: untreated): 91.3%
Cc1cc(=O)[nH]c(=O)n1Cc1cn(-c2c3ccccc3nc3ccccc23)nn1 — growth percentage (NCI60 single-dose screen; 10 µM): 82.6%

For quick reference, copied from above:
O=C(Nc1nnc2n3c(=S)[nH][nH]c3nc(-c3ccc(Cl)cc3)c1-2)c1ccccc1 — cell growth (SRB; 10 µM, NCI60 single-dose screen; baseline: untreated): 91.3%
